Assay results collected from several papers.
Protocols differ between the studies behind these lines. ± marks the error that the study gave.

Compound	system	setting	scale	measurement	result
CSCC[C@H](NC(=O)[C@H](CC(C)C)NC(=O)[C@H](Cc1c[nH]cn1)NC(=O)CNC(=O)[C@@H](NC(=O)[C@H](C)NC(=O)[C@H](Cc1c[nH]c2ccccc12)NC(=O)[C@H](CCC(N)=O)NC(=O)CNC(=O)[C@H](CO)NC(=O)CNC(=O)CCCCCCCNC(=O)CCC(=O)Nc1ccc(CNC23CNCCNCC(N)(CNCCNC2)CNCCNC3)cc1)C(C)C)C(N)=O [copper-64 labelled]	female SCID mice, PC-3 xenograft, pancreas	intravenous, 0.6 MBq, 4 h	–	tissue uptake	29.5 ± 1.16 %ID/g
N=C(N)NCCC[C@@H]1NC(=O)[C@H](CCCCNC(=O)CC[C@H](NC(=O)[C@H](CCCCNC(=O)c2ccc(NN)nc2)NC(=O)c2ccc(NN)nc2)C(=O)NCCCC[C@@H]2NC(=O)[C@@H](Cc3ccccc3)NC(=O)[C@H](CC(=O)O)NC(=O)CNC(=O)[C@H](CCCNC(=N)N)NC2=O)NC(=O)[C@@H](Cc2ccccc2)NC(=O)[C@H](CC(=O)O)NC(=O)CNC1=O [technetium-99m labelled]	female athymic nude mice	intravenous, 1 h, U-87 MG glioma xenograft	relative to: tumour over liver	tissue ratio	2.43 ± 0.21
N=C(N)NCCC[C@@H]1NC(=O)[C@H](CCCCNC(=O)CC[C@H](NC(=O)CCOCCOCCOCCOCCNC(=O)CC[C@H](NC(=O)CN2CCN(CC(=O)O)CCN(CC(=O)O)CCN(CC(=O)O)CC2)C(=O)NCCOCCOCCOCCOCCC(=O)N[C@@H](CCC(=O)NCCCC[C@@H]2NC(=O)[C@@H](Cc3ccccc3)NC(=O)[C@H](CC(=O)O)NC(=O)CNC(=O)[C@H](CCCNC(=N)N)NC2=O)C(=O)NCCCC[C@@H]2NC(=O)[C@@H](Cc3ccccc3)NC(=O)[C@H](CC(=O)O)NC(=O)CNC(=O)[C@H](CCCNC(=N)N)NC2=O)C(=O)NCCCC[C@@H]2NC(=O)[C@@H](Cc3ccccc3)NC(=O)[C@H](CC(=O)O)NC(=O)CNC(=O)[C@H](CCCNC(=N)N)NC2=O)NC(=O)[C@@H](Cc2ccccc2)NC(=O)[C@H](CC(=O)O)NC(=O)CNC1=O [indium-111 labelled]	female athymic nude mice, blood	intravenous, 3 µCi, 4 h, U-87 MG glioma xenograft	–	tissue uptake	0.05 ± 0.02 %ID/g
N=C(N)NCCC[C@@H]1NC(=O)[C@H](CCCCNC(=O)CCOCCOCCOCCOCCNC(=O)CC[C@H](NC(=O)CCOCCOCCOCCOCCNC(=O)[C@H](CCCCNC(=O)c2ccc(NN)nc2)NC(=O)c2ccc(NN)nc2)C(=O)NCCOCCOCCOCCOCCC(=O)NCCCC[C@@H]2NC(=O)[C@@H](Cc3ccccc3)NC(=O)[C@H](CC(=O)O)NC(=O)CNC(=O)[C@H](CCCNC(=N)N)NC2=O)NC(=O)[C@@H](Cc2ccccc2)NC(=O)[C@H](CC(=O)O)NC(=O)CNC1=O [technetium-99m labelled]	female athymic nude mice	intravenous, 1 h, U-87 MG glioma xenograft	relative to: tumour over lung	tissue ratio	3.3 ± 0.14
N=C(N)NCCC[C@@H]1NC(=O)[C@H](CCCCNC(=O)CNC(=O)CNC(=O)CNC(=O)CC[C@H](NC(=O)CCOCCOCCOCCOCCNC(=O)CC[C@H](NC(=O)CN2CCN(CC(=O)O)CCN(CC(=O)O)CCN(CC(=O)O)CC2)C(=O)NCCOCCOCCOCCOCCC(=O)N[C@@H](CCC(=O)NCC(=O)NCC(=O)NCC(=O)NCCCC[C@@H]2NC(=O)[C@@H](Cc3ccccc3)NC(=O)[C@H](CC(=O)O)NC(=O)CNC(=O)[C@H](CCCNC(=N)N)NC2=O)C(=O)NCC(=O)NCC(=O)NCC(=O)NCCCC[C@@H]2NC(=O)[C@@H](Cc3ccccc3)NC(=O)[C@H](CC(=O)O)NC(=O)CNC(=O)[C@H](CCCNC(=N)N)NC2=O)C(=O)NCC(=O)NCC(=O)NCC(=O)NCCCC[C@@H]2NC(=O)[C@@H](Cc3ccccc3)NC(=O)[C@H](CC(=O)O)NC(=O)CNC(=O)[C@H](CCCNC(=N)N)NC2=O)NC(=O)[C@@H](Cc2ccccc2)NC(=O)[C@H](CC(=O)O)NC(=O)CNC1=O [indium-111 labelled]	athymic nude mice, female, U-87 MG glioma xenograft, U-87 MG tumour	intravenous, 3 µCi, 0.5 h	–	tissue uptake	11.4 ± 2.92 %ID/g
N=C(N)NCCC[C@@H]1NC(=O)[C@H](CCCCNC(=O)CCOCCOCCOCCOCCNC(=O)CC[C@H](NC(=O)[C@H](CCCCNC(=O)c2ccc(NN)nc2)NC(=O)c2ccc(NN)nc2)C(=O)NCCOCCOCCOCCOCCC(=O)NCCCC[C@@H]2NC(=O)[C@@H](Cc3ccccc3)NC(=O)[C@H](CC(=O)O)NC(=O)CNC(=O)[C@H](CCCNC(=N)N)NC2=O)NC(=O)[C@@H](Cc2ccccc2)NC(=O)[C@H](CC(=O)O)NC(=O)CNC1=O [technetium-99m labelled]	female athymic nude mice	intravenous, 1 h, U-87 MG glioma xenograft	relative to: tumour over lung	tissue ratio	3.6 ± 0.13
N=C(N)NCCC[C@@H]1NC(=O)[C@H](CCCCNC(=O)CC[C@H](NC(=O)CCOCCOCCOCCOCCNC(=O)CN2CCN(CC(=O)O)CCN(CC(=O)O)CCN(CC(=O)O)CC2)C(=O)NCCCC[C@@H]2NC(=O)[C@@H](Cc3ccccc3)NC(=O)[C@H](CC(=O)O)NC(=O)CNC(=O)[C@H](CCCNC(=N)N)NC2=O)NC(=O)[C@@H](Cc2ccccc2)NC(=O)[C@H](CC(=O)O)NC(=O)CNC1=O [indium-111 labelled]	female athymic nude mice, brain	intravenous, 3 µCi, 4 h, U-87 MG glioma xenograft	–	tissue uptake	0.09 ± 0.05 %ID/g
CSCC[C@H](NC(=O)[C@H](CC(C)C)NC(=O)[C@H](Cc1c[nH]cn1)NC(=O)CNC(=O)[C@@H](NC(=O)[C@H](C)NC(=O)[C@H](Cc1c[nH]c2ccccc12)NC(=O)[C@H](CCC(N)=O)NC(=O)CCCCCCCNC(=O)CCC(=O)Nc1ccc(CNC23CNCCNCC(N)(CNCCNC2)CNCCNC3)cc1)C(C)C)C(N)=O [copper-64 labelled]	female SCID mice, PC-3 xenograft, pancreas	intravenous, 0.6 MBq, 4 h	–	tissue uptake	48.4 ± 5.25 %ID/g
CC(C)C[C@H](NC(=O)[C@H](Cc1ccc(O)cc1)NC(=O)[C@@H](CCCNC(=N)N)NC(=O)[C@@H](CO)NC(=O)[C@H](Cc1ccccc1)NC(=O)[C@H](CC1CCCCC1)NC(=O)[C@H](CC(=O)O)NC(=O)CCC(C(=O)O)N1CCCN2CCN(CCCN(CC(=O)O)CC2)CC1)C(=O)N[C@@H](Cc1c[nH]c2ccccc12)C(=O)N[C@@H](CO)C(=O)O (stereo partly shown) [copper-64 labelled]	female NMRI nude mice, stomach	22 h p.i.	–	tissue uptake	0.7 ± 0.1 %ID/g
N=C(N)NCCC[C@H](NC(=O)[C@H](CCCCN)NC(=O)[C@H](CCC(N)=O)NC(=O)CCOCCOCCOCCNC(=O)CN1CCN(CC(=O)O)CCN(CC(=O)O)CCN(CC(=O)O)CC1)C(=O)N[C@@H](CCCCN)C(=O)N[C@@H](CCCNC(=N)N)C(=O)N[C@@H](CCCCN)C(=O)N[C@@H](CCCCN)C(=O)N[C@@H](CO)C(=O)N[C@@H](CCCNC(=N)N)C(=O)N[C@@H](Cc1ccc(O)cc1)C(=O)N[C@@H](CCCCN)C(=O)N[C@@H](CO)C(=O)O [copper-64 labelled]	male C57BL/6 mice, B16-F10 tumour, muscle	intravenous, 60 min	–	tissue uptake	0.29 ± 0.01 %ID/g

A few entries again:
Compound	system	setting	scale	measurement	result
N=C(N)NCCC[C@@H]1NC(=O)[C@H](CCCCNC(=O)CCOCCOCCOCCOCCNC(=O)CC[C@H](NC(=O)[C@H](CCCCNC(=O)c2ccc(NN)nc2)NC(=O)c2ccc(NN)nc2)C(=O)NCCOCCOCCOCCOCCC(=O)NCCCC[C@@H]2NC(=O)[C@@H](Cc3ccccc3)NC(=O)[C@H](CC(=O)O)NC(=O)CNC(=O)[C@H](CCCNC(=N)N)NC2=O)NC(=O)[C@@H](Cc2ccccc2)NC(=O)[C@H](CC(=O)O)NC(=O)CNC1=O [technetium-99m labelled]	female athymic nude mice	intravenous, 1 h, U-87 MG glioma xenograft	relative to: tumour over lung	tissue ratio	3.6 ± 0.13
